Measured values gathered from unrelated publications.
Parts stem from different laboratories: compare values within a part only.

Sample 1 — technique: aptamer microarray, sandwich; form: DNA with 2'F-ANA; sample: in vitro; tested at: 200 nM; together with: Cy3 exosite-II aptamer, 400 nM; reading: higher = stronger binding; strand: GGTTGGTGTGGTTGG
Target: Prothrombin, mature alpha-thrombin (F2, Homo sapiens, UniProt P00734)
Setting: whole 15-mer aptamer, many near background
For `2'F-ANA at 1 2 3 7 8 9 10 12 13 14 15`, “mean fluorescence intensity” read 61.1 a.u.
`2'F-ANA at 1 3 4 7 8 10 11 12 14` — result for “mean fluorescence intensity”: 52.3 a.u.
`2'F-ANA at 3 6 9 10 11 12 13 14 15` — result for “mean fluorescence intensity”: 331 a.u.
`2'F-ANA at 3 5 7 9 10 12 13`: “mean fluorescence intensity” 61.3 a.u.
For `2'F-ANA at 2 3 7 9 10 11 15`, “mean fluorescence intensity” read 323 a.u.
`2'F-ANA at 3 5 6 7 10 11 13`: “mean fluorescence intensity” 49.7 a.u.
`2'F-ANA at 2 3 4 8 9 11 13 14`: “mean fluorescence intensity” 303 a.u.

Sample 2 — technique: RNA Bind-n-Seq; form: RNA; sample: in vitro; tested at: 365 nM; baseline: no-protein control; reading: higher = stronger binding
Target: RNA binding protein fox-1 homolog 2, RRM domain, GST-SBP tag (RBFOX2, Homo sapiens, UniProt O43251-10, residues 100-194)
Setting: natural RNA segment, single round, ends assumed
Shared flanks, not repeated: GGGAGUUCUACAGUCCGACGAUC … UGGAAUUCUCGGGUGCCAA
Construct (chain): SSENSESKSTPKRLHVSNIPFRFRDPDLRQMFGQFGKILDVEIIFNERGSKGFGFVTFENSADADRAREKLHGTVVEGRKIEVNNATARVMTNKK
For `AAGUGCAAUUCCUGAAGGCAUCAGGCUCUUCUCUCCCAGGCUCUCCUGCCCACUGUGUUGUUUGUAGGACACCCCCACACCCACUCAUACACAGCCUGCAUCUCCACAGG`, “RBNS enrichment (R)” read 0.638.
`GAGGUAUCACUCAGGGUGCCAAGUACACACUCAUCCUCCAGGCAACAGAGAGGAUGGGGCUCCCCGAGUAGUGGGAGUUCUUUUGUGGCCUGUGCUGGGGGUAGGGAGCC` — result for “RBNS enrichment (R)”: 0.363.
For `GGGAGUCUCUCUUAGCCCUUUCAGGAAUUUCUGUUCAGGCUUCCUCCUCCUCAUCAGCUAUUUUACCCAUCUCAGAACGUCCUGUGUCUCCAUGUAGGAGAGUGGCUCUC`, “RBNS enrichment (R)” read 0.938.
`GGAAAGUAAGAACACUGAUGGUGAUUCCUCUGCAAAGAUGAUAAGAAAAAGAACCAAUAAAUCACACAAUCUUUAUGUGCUUUCUAUAUGUAUUUCUUAGUAGUGAUACC` — result for “RBNS enrichment (R)”: 0.601.
`UGUCCUUCCCCCUUCUCUGCUUUGCAGUCCCCAUGGACUCUGGGCAUGGUGCACUGUCGUCUUUGCUCUUCAUUGAGGAUCUUCCACCCACCAUGGUCCCCUCAGUUGCA`: “RBNS enrichment (R)” 2.27.
Under “RBNS enrichment (R)”, `AAGGGAAAUGCAGUUUUUUAAUAGGCUUAUCCAGGAAAUGUUACAGUCUCUUUAACGACAGCUAUAGAUGCUGGAUGUGUUCCGAUGACUUAGGUCAUGUCACAUUGUUG` is recorded as 0.286.

Sample 3 — technique: protein binding microarray; form: double-stranded DNA, one strand shown; sample: in vitro; tested at: not given; baseline: not given; reading: higher = stronger binding
Target: Histone acetyltransferase KAT6A, winged helix 2, GST fusion (KAT6A, Homo sapiens, UniProt Q92794, residues 85-181)
Setting: 8-mer, flanks averaged, mean of 2 arrays, mostly near background
Construct (chain): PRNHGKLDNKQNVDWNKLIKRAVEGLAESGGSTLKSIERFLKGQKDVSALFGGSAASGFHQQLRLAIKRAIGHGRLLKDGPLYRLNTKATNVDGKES
With `GTGAGGGA` the E-score was 0.201.
`CAAGGATG` gave an E-score of -0.0271.
For `GACTTGTA`, the E-score was -0.182.
The E-score of `GAGATGGA` is reported as 0.0271.
`TGGTTAAA` gave an E-score of -0.0117.
`CCGTTGGA` gave an E-score of 0.0308.
`CCTGTCAC` has an E-score of -0.0409.
For `AAGTATGG`, the E-score was -0.0221.

Mixed results
For `PhoQ, residues 284 288 289 292 302 303 AQGLTV`, the fold induction was 17.9 (PhoP, residues 12 14 15 18 19 YHFSH (Escherichia coli, UniProt P23836); Sort-seq, measured: YFP reporter; E. coli; PhoQ-PhoP variant library, together with: 10 µM Mg2+; baseline: high Mg2+ state, higher = stronger signaling).

A few entries again (sample 2):
For `AAGUGCAAUUCCUGAAGGCAUCAGGCUCUUCUCUCCCAGGCUCUCCUGCCCACUGUGUUGUUUGUAGGACACCCCCACACCCACUCAUACACAGCCUGCAUCUCCACAGG`, “RBNS enrichment (R)” read 0.638.
`GAGGUAUCACUCAGGGUGCCAAGUACACACUCAUCCUCCAGGCAACAGAGAGGAUGGGGCUCCCCGAGUAGUGGGAGUUCUUUUGUGGCCUGUGCUGGGGGUAGGGAGCC` — result for “RBNS enrichment (R)”: 0.363.
